Measured values pooled from the literature.
Compare with care: the assays were run in different laboratories. ± gives the spread as reported.

`Cc1sc2ncn(CC(=O)N3CCCC3)c(=O)c2c1-c1cccc(Br)c1` — result for “γ2 conductance level area”: 26% (NMDA receptor, mouse; single-channel current, outside-out patch; cortical neurons; 50 µM, added: Ca2+ 0.5 mM).
The selectivity ratio of `O=C1Nc2ccc(-c3ccc(-c4ccc(O)cc4)cc3)cc2/C1=C/c1ccc(N2CCNCC2)cc1` is reported as 1 (FGFR3; relative to: IC50 FGFR3 over lowest IC50).
For `COc1ccc(-c2cc(C(=O)Nc3cccc(Cl)c3C)no2)cc1O`, the EC50 was 0.028 nM (mitochondrial permeability transition pore (mouse); Ca2+-induced mitochondrial swelling; isolated mouse liver mitochondria).
With `COc1ccc2c(c1)c1c(C)c3cnccc3c(C)c1n2CCCN1CCN(C)CC1` the ΔTm ratio was 3 fold (PDGFR-β NHE 41-mer G-quadruplex DNA; CD thermal melt; relative to: wild type over R1 A-to-G mutant).
With `CC(=O)N[C@@H](Cc1ccc(O)cc1)CN(CC(=O)N[C@@H](CCCCN)CN(CC(=O)N[C@@H](Cc1ccccc1)CN(CC(=O)N[C@H]1CCCCNc2c(F)c(F)c(c(F)c2F)S(=O)(=O)c2c(F)c(F)c(c(F)c2F)NCCCC[C@@H](CN(CC(=O)N[C@@H](C)CN(CC(N)=O)S(=O)(=O)c2ccc(Cl)cc2)S(C)(=O)=O)NC(=O)CN(S(=O)(=O)CC(C)C)C[C@H](CC(C)C)NC(=O)CN(S(=O)(=O)CCN)C1)S(=O)(=O)CC(C)C)S(=O)(=O)CCN)S(C)(=O)=O` the IC50 was 23400 ± 7970 nM (CREB; reporter gene, inhibitor, CRE Renilla luciferase; HEK-293T; 30 min, added: forskolin 10 µM for 5 h).
Under “reduction of FRET signal”, `CC[C@H](C)[C@H](NC(=O)[C@H](CCC(=O)O)NC(=O)[C@H](CO)NC(=O)[C@@H](NC(=O)[C@@H](N)CO)C(C)C)C(=O)N[C@@H](CCC(N)=O)C(=O)N[C@@H](CC(C)C)C(=O)N[C@@H](CCSC)C(=O)N[C@@H](Cc1c[nH]cn1)C(=O)N[C@@H](CC(N)=O)C(=O)N[C@@H](CC(C)C)C(=O)NCC(=O)N[C@@H](CCCCN)C(=O)N[C@@H](Cc1c[nH]cn1)C(=O)N[C@@H](CC(C)C)C(=O)N[C@@H](CC(N)=O)C(=O)N[C@@H](CO)C(=O)N[C@@H](CCSC)C(=O)N[C@@H](CCC(=O)O)C(=O)N[C@@H](CCCNC(=N)N)C(=O)N[C@H](C(=O)N[C@@H](CCC(=O)O)C(=O)N[C@@H](Cc1c[nH]c2ccccc12)C(=O)N[C@@H](CC(C)C)C(=O)N[C@@H](CCCNC(=N)N)C(=O)N[C@@H](CCCCN)C(=O)N[C@@H](CCCCN)C(=O)N[C@@H](CC(C)C)C(=O)N[C@@H](CCC(N)=O)C(=O)N[C@@H](CC(=O)O)C(=O)N[C@H](C(=O)N[C@@H](Cc1c[nH]cn1)C(=O)N[C@@H](CC(N)=O)C(=O)N[C@@H](Cc1ccccc1)C(=O)O)C(C)C)C(C)C` is recorded as ~10% (PTH1 receptor; cAMP level, Epac FRET sensor; HEK293; 100 nM, 10 s).
Under “BRD3 peptide level increase”, `Cc1ncsc1-c1ccc(CNC(=O)[C@@H]2C[C@H](O)CN2C(=O)[C@@H](NC(=O)CN2CCN(C3CN(CCNC(=O)C[C@@H]4N=C(c5ccc(Cl)cc5)c5c(sc(C)c5C)-n5c(C)nnc54)C3)CC2)C(C)(C)C)cc1` is recorded as 8% (Spodoptera frugiperda BRD3; degrader, targeted MS; Spodoptera frugiperda L5 larvae; injection, 0.1 nmol/mg; relative to: DMSO).
`CC(=O)N[C@@H](Cc1ccc(O)cc1)CN(CC(=O)N[C@@H](CCCCNC(=N)N)CN(CC(=O)N[C@@H](Cc1ccccc1)CN(CC(=O)N[C@H]1CCCCNc2c(F)c(F)c(c(F)c2F)S(=O)(=O)c2c(F)c(F)c(c(F)c2F)NCCCC[C@@H](CN(CC(=O)N[C@@H](C)CN(CC(N)=O)S(C)(=O)=O)S(C)(=O)=O)NC(=O)CN(S(=O)(=O)CC(C)C)C[C@H](CC(C)C)NC(=O)CN(S(=O)(=O)CCNC(=N)N)C1)S(=O)(=O)CC(C)C)S(=O)(=O)CCNC(=N)N)S(C)(=O)=O` has an IC50 of 67900 ± 15200 nM (CREB; reporter gene, inhibitor, CRE Renilla luciferase; HEK-293T; 30 min, added: forskolin 10 µM for 5 h).
For `CCN1CCN(Cc2ccc(NC(=O)c3ccc(C)c(NC(=O)c4cncc(-c5cnn(C)c5)c4)c3)cc2C(F)(F)F)CC1`, phosphorylation read “inhibited” (SRC family kinases; inhibitor, Western blot; NCI-H2286 and HCC366; 0.5 µM, 3 h).
`Cc1cccc(C)c1NC(=O)c1cc(-c2cccc(O)c2)on1` — result for “calcium retention capacity ratio”: 8.12 ± 0.59 (mitochondrial permeability transition pore, mouse; isolated mouse liver mitochondria; 1.56 µM; relative to: untreated).
The pCu of `O=S(=O)([O-])CCCOCC1(COCCCS(=O)(=O)[O-])CSCCCSCC(COCCCS(=O)(=O)[O-])(COCCCS(=O)(=O)[O-])CSCCCSC1.[Na+].[Na+].[Na+].[Na+]` is reported as 14.8 (Cu(I); competition titration; 10 µM, pH 7.0, ionic strength 0.1, added: Cu(I) 1 µM; higher = stronger binding).
For `CC(=O)N[C@@H](Cc1ccc(O)cc1)CN(CC(=O)N[C@@H](CCCCN)CN(CC(=O)N[C@@H](Cc1ccccc1)CN(CC(=O)N[C@H]1CCCCNc2c(F)c(F)c(c(F)c2F)S(=O)(=O)c2c(F)c(F)c(c(F)c2F)NCCCC[C@@H](CN(CC(=O)N[C@@H](C)CN(CC(N)=O)S(C)(=O)=O)S(C)(=O)=O)NC(=O)CN(S(=O)(=O)CC(C)C)C[C@H](CC(C)C)NC(=O)CN(S(=O)(=O)CCN)C1)S(=O)(=O)CC(C)C)S(=O)(=O)CCN)S(=O)(=O)Cc1ccccc1`, the IC50 was 54000 ± 18200 nM (CREB; reporter gene, inhibitor, CRE Renilla luciferase; HEK-293T; 30 min, added: forskolin 10 µM for 5 h).
`C[n+]1ccc(/C=N/NC(=O)c2cncc(C(=O)N/N=C/c3cc[n+](C)c4ccccc34)n2)c2ccccc21` has a delta Tm of 25 °C (G-quadruplex DNA 22CTA antiparallel; UV melting; 6 µM, K10 buffer, added: DNA 3 µM).
With `C[C@@H](N)C1CCN(S(=O)(=O)c2cccc3c(=O)[nH]ccc23)CC1` the EC50 was 950 nM (ROCK; MLC2 phosphorylation, inhibitor, Western blot; hBMVEC; 1 h, added: LPA 5 min).
`CC[C@H](C)[C@@H]1NC(=O)[C@H](CCCNC(=N)N)NC(=O)[C@H](C)NC(=O)CNC(=O)[C@H](CCCCN)NC(=O)[C@H](CCCNC(=N)N)NC(=O)[C@H](C(C)C)NC(=O)[C@H](C)NC(=O)[C@@H]2CSSC[C@@H]3NC(=O)[C@H](CO)NC(=O)[C@H]([C@@H](C)O)NC(=O)CNC(=O)[C@H](CCCNC(=N)N)NC(=O)[C@@H]4CCCN4C(=O)[C@H](CSSC[C@@H](C(=O)N[C@@H](CC(C)C)C(=O)O)NC(=O)[C@H](CCCCN)NC(=O)[C@H](CC(C)C)NC(=O)[C@H](CC(C)C)NC(=O)[C@H](Cc4ccccc4)NC(=O)[C@H](CO)NC(=O)[C@H](CC(N)=O)NC3=O)NC(=O)[C@H](CC(=O)O)NC(=O)[C@H](CSSC[C@H](NC(=O)[C@H](CCSC)NC(=O)[C@@H]3CCCN3C(=O)[C@@H](NC(=O)[C@H](CCC(N)=O)NC(=O)CNC(=O)[C@H](Cc3ccc(O)c(I)c3)NC(=O)[C@@H](N)CCCCN)C(C)C)C(=O)N[C@@H](CC(=O)O)C(=O)N[C@@H](C)C(=O)NCC(=O)N[C@@H](CCC(=O)O)C(=O)N[C@@H](CCC(N)=O)C(=O)N2)NC(=O)[C@H](CC(C)C)NC(=O)[C@H](CCCCN)NC(=O)CNC1=O` [iodine-125 labelled] has a Bmax of 108 ± 8.4 fmol/mg protein (CART peptide binding site (rat); differentiated PC-12 membranes; 1 h, room temperature).
For `C[C@@H](N)C1CCN(S(=O)(=O)c2cccc3cnccc23)CC1`, the inhibition was 15% (ROCK; MLC2 phosphorylation, inhibitor; HUVEC; 50 µM, 1 h, added: LPA; relative to: LPA alone).
The inhibition of `CC1OC(Oc2c(-c3ccc(O)cc3)oc3cc(O)cc(O)c3c2=O)C(OC(=O)C=Cc2ccc(O)cc2)C(O)C1OC(=O)C=Cc1ccc(O)cc1` (centres unmarked) is reported as 75.7% (CCR2; macrophage infiltration; mouse, thioglycollate peritonitis, peritoneum; intraperitoneal, 50 mg/kg).
`C[C@@H]1O[C@@H](O[C@H]2[C@H](O[C@H]3CC[C@@]4(C)[C@@H](CC[C@]5(C)[C@@H]4CC=C4[C@@H]6CC(C)(C)CC[C@]6(C(=O)O)CC[C@]45C)[C@]3(C)CO)OC[C@H](O)[C@@H]2O)[C@H](O)[C@H](O)[C@H]1O` gave an EC50 of 1700 ± 500 nM (PPARs; reporter gene, agonist; HepG2 transfected PPRE-luciferase and PPAR; 20 h).
`Cc1ncc(Cl)cc1NC(=O)c1cc(-c2ccc(F)c(O)c2)on1` has an EC50 of 16 nM (mitochondrial permeability transition pore (mouse); Ca2+-induced mitochondrial swelling; isolated mouse liver mitochondria).
`CCc1nc2sc(C)c(C)c2c(=O)n1N`: “adjusted retention time” 1.14 min (none; weak affinity chromatography-MS; ethanolamine reference column).
